Published values pooled from the literature.
Organism: Pseudomonas aeruginosa

SMILES | test | system | setting | MIC
C#CCO/N=C(\C(=O)N[C@@H]1C(=O)N(OS(=O)(=O)O)C1(C)C)c1nsc(N)n1 | agar dilution | ATCC 27853 | – | > 64 µg/mL
COc1cc(Cc2cnc(N)nc2N)cc(OC)c1OC.O=c1[nH]cc(F)c(=O)[nH]1 | broth microdilution | – | 24 h | 8 µg/mL
CC(C)C[C@@H]1NC(=O)[C@@H](CC(C)C)NC(=O)[C@H](CCN)NC(=O)[C@@H](NC(=O)[C@H](CCN)NC(=O)[C@@H](N)[C@@H](C)O)CCNC(=O)[C@H]([C@@H](C)O)NC(=O)[C@H](CCN)NC(=O)[C@H](CCN)NC1=O | broth microdilution | ATCC 17978, cation-adjusted Mueller-Hinton broth | – | > 138 µM
O=CCNCCOn1c(=O)n(OCCNCCO)c(=O)n(OCCNCCOn2c(=O)n(OCCNCCO)c(=O)n(OCCNCCO)c2=O)c1=O | microbial growth, broth dilution | – | – | 2 µg/mL
COc1c(NC(=O)c2ccc(NC(=O)[C@H](Cc3c[nH]nn3)NC(=O)c3ccc(NC(=O)/C(C)=C/c4ccc(O)cc4)cc3)cc2)ccc(C(=O)Nc2ccc(C(=O)O)cc2)c1O | broth microdilution | ciprofloxacin-resistant | – | 32 µg/mL
CC[C@H]1OC(=O)[C@H](C)C(=O)[C@H](C)[C@@H](O[C@@H]2O[C@H](C)C[C@H](N(C)C)[C@H]2O)[C@](C)(OC)C[C@@H](C)C(=O)[C@H](C)[C@H]2N(CCCCn3cnc(-c4cccnc4)c3)C(=O)O[C@]12C | microbial growth | ATCC27853 | – | > 32 µg/mL
CN[C@H](CC(C)C)C(=O)N[C@H]1C(=O)N[C@@H](CC(N)=O)C(=O)N[C@H]2C(=O)N[C@H]3C(=O)N[C@H](C(=O)N[C@H](C(=O)N[C@@H](CCCNC(=N)N)C(N)=O)c4cc(O)cc(O)c4-c4cc3ccc4O)[C@H](O)c3ccc(c(Cl)c3)Oc3cc2cc(c3O[C@@H]2O[C@H](CO)[C@@H](O)[C@H](O)[C@H]2O[C@H]2C[C@](C)(NCc3ccc(OCc4cn(CC(=O)N[C@H](C(=O)N[C@@H](CCN)C(=O)N[C@H]5CCNC(=O)[C@H]([C@@H](C)O)NC(=O)[C@H](CCN)NC(=O)[C@H](CCN)NC(=O)[C@H](CC(C)C)NC(=O)[C@@H](CC(C)C)NC(=O)[C@H](CCN)NC5=O)[C@@H](C)O)nn4)c(OC)c3)[C@H](O)[C@H](C)O2)Oc2ccc(cc2Cl)[C@H]1O | broth microdilution | ATCC 10145, cation-adjusted Mueller-Hinton broth | 18 to 20 h, 37 °C, 0.002% polysorbate 80 | 32 µg/mL
CO[C@@H]1[C@@H](OC(N)=O)[C@@H](O)[C@H](Oc2ccc3c(O)c(NC(=O)c4ccc(O)c(CC=C(C)C)c4)c(=O)oc3c2C)OC1(C)C | broth microdilution | phenazine non-producing | – | 512 µg/mL
CC[C@H]1OC(=O)[C@H](C)[C@@H](OC(=O)Cc2cccc3ccccc23)[C@H](C)[C@@H](O[C@@H]2O[C@H](C)C[C@H](N(C)C)[C@H]2O)[C@](C)(OC)C[C@@H](C)C(=O)[C@H](C)[C@@H](O)[C@]1(C)O | microbial growth | ATCC27853 | – | > 32 µg/mL
CC1(C)[C@H](NC(=O)/C(=N\OCc2c(Cl)cccc2Cl)c2nsc(N)n2)C(=O)N1OS(=O)(=O)O | agar dilution | ATCC 27853 | – | > 64 µg/mL
COc1ccc(O)c(/C=N/[C@@H]2CCCC[C@@H]2/N=C/c2c(O)ccc3ccc(OC)cc23)c1 | microbial growth, broth dilution | – | clinical isolate | > 40 µM
COc1c(NC(=O)c2ccc(NC(=O)c3ccc(NC(=O)[C@H](Cc4c[nH]nn4)NC(=O)c4ccc(NC(=O)/C(C)=C/c5ccc(O)cc5)cc4)cc3)c(OC)c2O)ccc(C(=O)O)c1O | broth microdilution | ciprofloxacin-sensitive | – | 4 µg/mL
Cc1cccc(C(=O)Oc2cccccc2=O)c1 | broth microdilution | ATCC 27853, CAMHB | 16 to 24 h, ≥80% growth inhibition | > 71.4 µM
CCCCCCCCn1cc[n+](CCCCCCCCCCOc2cc(OCCCCCCCCCC[n+]3ccn(CCCCCCCC)c3)cc(OCCCCCCCCCC[n+]3ccn(CCCCCCCC)c3)c2)c1.[Br-].[Br-].[Br-] | – | PAO1 | – | 32 µM
CCOc1c(NC(=O)c2ccc(NC(=O)c3ccc(NC(=O)[C@H](Cc4c[nH]nn4)NC(=O)c4ccc(NC(=O)/C(C)=C/c5ccc(O)cc5)cc4)cc3)c(OCC)c2O)ccc(C(=O)O)c1O | broth microdilution | ciprofloxacin-resistant | – | 2 µg/mL
CCCCCCCCCCn1cc[n+](CCCCCCCCOc2cc(OCCCCCCCC[n+]3ccn(CCCCCCCCCC)c3)cc(OCCCCCCCC[n+]3ccn(CCCCCCCCCC)c3)c2)c1.[Br-].[Br-].[Br-] | – | PAO1 | – | 32 µM
CCCCCCCC(=O)N[C@@H](CCN)C(=O)N[C@H](C(=O)N[C@@H](CCN)C(=O)N[C@H]1CCNC(=O)[C@H]([C@@H](C)O)NC(=O)[C@H](CCN)NC(=O)[C@H](CCN)NC(=O)[C@H](CC(C)C)NC(=O)[C@@H](Cc2ccccc2)NC(=O)[C@H](CCN)NC1=O)[C@@H](C)O | – | ATCC 27853 | – | 0.25 µg/mL
COc1c(C)c(OC(=O)c2ccccc2)c(C)c(OC(=O)c2ccccc2)c1C(=O)/C=C/c1ccccc1 | microbial growth, broth dilution | ATCC27853 | – | 1250 µg/mL
CC[C@H]1OC(=O)[C@H](C)[C@@H](O[C@H]2C[C@@](C)(OC)[C@@H](O)[C@H](C)O2)[C@H](C)[C@@H](O[C@@H]2O[C@H](C)C[C@H](N(C)C)[C@H]2O)[C@](C)(O)C[C@@H](C)CN(C)[C@H](C)[C@@H](O)[C@]1(C)O | microbial growth, broth dilution | PAO1 | – | 32 µg/mL
CC1(C)[C@H](NC(=O)/C(=N\OCc2cc(=O)c(O)cn2O)c2csc(N)n2)C(=O)N1OS(=O)(=O)O | microbial growth, agar dilution | PAO1 | – | 0.5 µg/mL
COc1ccc2ccc(O)c(/C=N/[C@H]3CCCC[C@H]3/N=C/c3cccc(C)c3O)c2c1 | microbial growth, broth dilution | – | – | > 40 µM
CC[C@H]1OC(=O)[C@H](C)[C@@H](OC(=O)Cc2ccccc2[N+](=O)[O-])[C@H](C)[C@@H](O[C@@H]2O[C@H](C)C[C@H](N(C)C)[C@H]2O)[C@](C)(OC)C[C@@H](C)C(=O)[C@H](C)[C@@H](O)[C@]1(C)O | microbial growth | ATCC27853 | – | > 32 µg/mL
CC1(C)[C@H](NC(=O)/C(=N\OC2(C(=O)O)CCCC2)c2csc(N)n2)C(=O)N1OS(=O)(=O)O | agar dilution | ATCC 27853 | – | 4 µg/mL
N=C(N)NCCC[C@@H]1NC(=O)[C@H](CCCNC(=N)N)NC(=O)[C@@H](C(c2ccccc2)c2ccccc2)NC(=O)[C@H](Cc2c[nH]c3ccccc23)NC(=O)[C@@H](C(c2ccccc2)c2ccccc2)NC(=O)[C@@H](CCCNC(=N)N)NC(=O)[C@@H](CCCNC(=N)N)NC1=O | – | ATCC 27853 | – | 32 µg/mL

Excerpt of the above:
SMILES | test | system | setting | MIC
COc1ccc2ccc(O)c(/C=N/[C@H]3CCCC[C@H]3/N=C/c3cccc(C)c3O)c2c1 | microbial growth, broth dilution | – | – | > 40 µM
CC[C@H]1OC(=O)[C@H](C)[C@@H](OC(=O)Cc2ccccc2[N+](=O)[O-])[C@H](C)[C@@H](O[C@@H]2O[C@H](C)C[C@H](N(C)C)[C@H]2O)[C@](C)(OC)C[C@@H](C)C(=O)[C@H](C)[C@@H](O)[C@]1(C)O | microbial growth | ATCC27853 | – | > 32 µg/mL
